{"data": "Experimental data pooled from the literature", "rep main protease": "Replicase polyprotein 1ab, main protease (rep, Severe acute respiratory syndrome coronavirus 2, UniProt P0DTD1)", "Spike glycoprotein": "Spike glycoprotein (Severe acute respiratory syndrome coronavirus 2, UniProt P0DTC2)", "note": "Lines come from different studies, so protocols differ. Several values in a cell are separate wells, animals, samples, runs or records. Numbers after ± are the reported error."}
{"SMILES": "Cn1cnc(Cn2c(=O)[nH]/c(=N\\c3cc4cn(C)nc4cc3Cl)n(Cc3cc(F)c(F)cc3F)c2=O)n1", "test system": "human, mild renal impairment", "conditions": "oral, 375 mg", "quantity": "treatment-related TEAE, Severe severity", "value": "0%"}
{"SMILES": "CCc1c(C(=O)C(N)=O)c2c(OCC(=O)O)cccc2n1Cc1ccccc1", "tested on": "Daboia russelii venom phospholipase A2", "assay": "enzyme activity, inhibitor", "test system": "TN population", "conditions": "0.1 µM, together with: NOB substrate", "how to read": "relative to: venom alone", "quantity": "remaining activity", "value": "97% and 100%"}
{"SMILES": "O=C(Cn1c(O)ccc1O)N[C@@H]1CCCCC12CCN(C(=O)c1cncc3[nH]cnc13)CC2", "tested on": "rep main protease", "assay": "enzyme activity, inhibitor", "conditions": "5 µM, mean of runs", "quantity": "inhibition", "value": "10.6%"}
{"SMILES": "Nc1ncnc2c([C@@H]3N[C@H](CO)[C@@H](O)[C@H]3O)c[nH]c12", "tested on": "Marburg marburgvirus", "assay": "virus production", "test system": "HeLa, Musoke", "conditions": "100 µM", "quantity": "supernatant virus titre", "value": "0 PFU/mL"}
{"SMILES": "OCC1(O)COc2cc(O)ccc2-c2cc(O)c(O)cc2C1 (stereo not drawn)", "tested on": "Spike glycoprotein", "assay": "binding, biolayer interferometry", "quantity": "kon", "value": "93.2 M⁻¹ s⁻¹"}
{"SMILES": "Nc1ncnc2c1ncn2[C@H]1C[C@H](O)[C@@H](COP(=O)(O)OP(=O)(O)OP(=O)(O)O)O1", "tested on": "Gag-Pol polyprotein, reverse transcriptase (gag-pol, Human immunodeficiency virus type 1 group M subtype B, UniProt P04585, K653R)", "assay": "substrate", "conditions": "K66R mutant, together with: matched T:A primer template", "quantity": "Km", "value": "0.0548 ± 0.0183 µM"}
{"SMILES": "Nc1ccccc1-c1noc(-c2ccncc2)n1", "tested on": "Spike glycoprotein, receptor-binding domain (Severe acute respiratory syndrome coronavirus 2, UniProt P0DTC2)", "assay": "RBD-ACE2 binding, inhibitor, ELISA", "conditions": "from pIC50", "quantity": "ligand efficiency", "value": 0.385}
{"SMILES": "CC[C@H](C)[C@H](NC(=O)[C@H](CC(C)C)NC(=O)[C@H](Cc1c[nH]c2ccccc12)NC(=O)[C@H](CCC(N)=O)NC(=O)[C@@H](NC(=O)[C@H](Cc1ccccc1)NC(=O)[C@H](C)NC(=O)[C@H](CCCCNC(=O)COCCOCCNC(=O)COCCOCCNC(=O)CC[C@H](NC(=O)CCCCCCCCCCCCCCCCCCC(=O)O)C(=O)O)NC(=O)[C@H](CCC(N)=O)NC(=O)[C@H](C)NC(=O)[C@@H](NC(=O)[C@H](CCCCN)NC(=O)[C@H](CC(=O)O)NC(=O)[C@H](CC(C)C)NC(=O)C(C)(C)NC(=O)[C@@H](NC(=O)[C@H](CO)NC(=O)[C@H](Cc1ccc(O)cc1)NC(=O)[C@H](CC(=O)O)NC(=O)[C@H](CO)NC(=O)[C@@H](NC(=O)[C@H](Cc1ccccc1)NC(=O)[C@@H](NC(=O)CNC(=O)[C@H](CCC(=O)O)NC(=O)C(C)(C)NC(=O)[C@@H](N)Cc1ccc(O)cc1)[C@@H](C)O)[C@@H](C)O)[C@@H](C)CC)[C@@H](C)CC)C(C)C)C(=O)N[C@@H](C)C(=O)NCC(=O)NCC(=O)N1CCC[C@H]1C(=O)N[C@@H](CO)C(=O)N[C@@H](CO)C(=O)NCC(=O)N[C@@H](C)C(=O)N1CCC[C@H]1C(=O)N1CCC[C@H]1C(=O)N1CCC[C@H]1C(=O)N[C@@H](CO)C(N)=O", "test system": "human", "conditions": "subcutaneous, 5.0 mg once weekly, week 7, multiple doses", "quantity": "Vz/F", "value": "8.01 L"}
{"SMILES": "Nc1ncnc2c1ncn2CCCNC(=O)c1ccc(S(=O)(=O)F)cc1", "tested on": "cya (Bacillus anthracis, UniProt P40136)", "quantity": "kinact", "value": "0.0002 s⁻¹"}
{"SMILES": "Cc1ccc2cc(C(=O)N3CCCC4(CCN(c5cc6nncn6c(C)n5)CC4)C3)ccc2c1", "tested on": "rep main protease", "assay": "enzyme activity, inhibitor", "conditions": "5 µM, run 1", "quantity": "inhibition", "value": "15.5%"}
{"SMILES": "Cc1ccc(C#Cc2ccc(S(=O)(=O)N[C@H](Cc3c[nH]c4ccccc34)C(=O)O)s2)cc1", "tested on": "rep main protease", "assay": "viral replication, mKate2 reporter", "test system": "SARS-CoV-2", "conditions": "20 µM", "quantity": "inhibition", "value": "-0.509%"}
{"SMILES": "Cn1cnc(Cn2c(=O)[nH]/c(=N\\c3cc4cn(C)nc4cc3Cl)n(Cc3cc(F)c(F)cc3F)c2=O)n1", "tested on": "Cytochrome P450 3A4 (CYP3A4, Homo sapiens, UniProt P08684)", "assay": "inhibitor", "test system": "human liver microsomes", "conditions": "30 min preincubation, preincubation with NADPH, together with: testosterone 60 µM", "quantity": "IC50", "value": "81 µM"}
{"SMILES": "CCOC1=C(O)C(=O)O[C@@H]1[C@@H](O)CO", "tested on": "rep main protease", "assay": "reporter gene (mKate2), inhibitor", "conditions": "20 µM", "quantity": "inhibition", "value": "-0.682%"}
{"SMILES": "CC(C)=CCc1c(O)ccc(C(=O)/C=C/c2ccc(O)cc2)c1O", "tested on": "Spike glycoprotein", "assay": "binding", "quantity": "kon", "value": "43700 M⁻¹ s⁻¹"}
{"SMILES": "O=C(O)c1ccc(Cl)cc1O", "tested on": "rep main protease", "assay": "reporter gene (Gaussia luciferase), inhibitor", "conditions": "20 µM", "quantity": "inhibition", "value": "0.553%"}
{"SMILES": "CC(C)(C)[C@H](NC(=O)C(F)(F)F)C(=O)N1C[C@H]2[C@@H]([C@H]1C(=O)N[C@H](C#N)C[C@@H]1CCNC1=O)C2(C)C", "test system": "human, fasted", "conditions": "oral, 500 mg single dose, 28 days, no ritonavir", "quantity": "participants with adverse events", "value": "1%"}
{"SMILES": "COC(=O)[C@]1(C)CC[C@]2(C(=O)O[C@@H]3O[C@H](CO)[C@@H](O)[C@H](O)[C@H]3O)CC[C@]3(C)C(=CC[C@@H]4[C@@]5(C)C[C@H](O)[C@H](O[C@@H]6OC[C@@H](O[C@@H]7O[C@H](CO)[C@@H](O)[C@H](O)[C@H]7O)[C@H](O)[C@H]6O)[C@@](C)(CO)C5CC[C@]43C)[C@H]2C1 (stereo partly drawn)", "tested on": "Spike glycoprotein", "assay": "binding, biolayer interferometry", "quantity": "koff", "value": "1.29 s⁻¹"}
{"SMILES": "O=C(NCC[C@H]1CCCN(C(=O)c2ccc(-c3cnc[nH]3)cc2)C1)c1ccc2n[nH]c(=O)n2c1", "tested on": "rep main protease", "assay": "enzyme activity, inhibitor", "conditions": "5 µM, run 2", "quantity": "inhibition", "value": "8.7%"}
{"SMILES": "NC(=O)c1ncn([C@@H]2O[C@H](CO)[C@@H](O)[C@H]2O)c1O", "tested on": "rep main protease", "assay": "reporter gene (Gaussia luciferase), inhibitor", "test system": "HEK293T", "conditions": "20 µM", "quantity": "inhibition", "value": "2.27%"}
{"SMILES": "O=C(c1cncc2[nH]cnc12)N1CC[C@]2(CCCCN(C(=O)[C@H]3C[C@@H]4C=CC[C@@H](C4)C3)C2)C1", "tested on": "rep main protease", "assay": "enzyme activity, inhibitor", "conditions": "5 µM, run 1", "quantity": "inhibition", "value": "10.5%"}
{"SMILES": "CC[C@H](C)[C@H](NC(=O)[C@H](CC(C)C)NC(=O)[C@H](Cc1c[nH]c2ccccc12)NC(=O)[C@H](CCC(N)=O)NC(=O)[C@@H](NC(=O)[C@H](Cc1ccccc1)NC(=O)[C@H](C)NC(=O)[C@H](CCCCNC(=O)COCCOCCNC(=O)COCCOCCNC(=O)CC[C@H](NC(=O)CCCCCCCCCCCCCCCCCCC(=O)O)C(=O)O)NC(=O)[C@H](CCC(N)=O)NC(=O)[C@H](C)NC(=O)[C@@H](NC(=O)[C@H](CCCCN)NC(=O)[C@H](CC(=O)O)NC(=O)[C@H](CC(C)C)NC(=O)C(C)(C)NC(=O)[C@@H](NC(=O)[C@H](CO)NC(=O)[C@H](Cc1ccc(O)cc1)NC(=O)[C@H](CC(=O)O)NC(=O)[C@H](CO)NC(=O)[C@@H](NC(=O)[C@H](Cc1ccccc1)NC(=O)[C@@H](NC(=O)CNC(=O)[C@H](CCC(=O)O)NC(=O)C(C)(C)NC(=O)[C@@H](N)Cc1ccc(O)cc1)[C@@H](C)O)[C@@H](C)O)[C@@H](C)CC)[C@@H](C)CC)C(C)C)C(=O)N[C@@H](C)C(=O)NCC(=O)NCC(=O)N1CCC[C@H]1C(=O)N[C@@H](CO)C(=O)N[C@@H](CO)C(=O)NCC(=O)N[C@@H](C)C(=O)N1CCC[C@H]1C(=O)N1CCC[C@H]1C(=O)N1CCC[C@H]1C(=O)N[C@@H](CO)C(N)=O", "test system": "healthy human", "conditions": "8.0 mg, single ascending dose", "quantity": "treatment-emergent adverse events", "value": "100%"}
{"note": "Repeated from above:"}
{"SMILES": "O=C(NCC[C@H]1CCCN(C(=O)c2ccc(-c3cnc[nH]3)cc2)C1)c1ccc2n[nH]c(=O)n2c1", "tested on": "rep main protease", "assay": "enzyme activity, inhibitor", "conditions": "5 µM, run 2", "quantity": "inhibition", "value": "8.7%"}
